Published values pooled from the literature.
Lines come from different studies, so protocols differ.

CC[C@H](C)[C@H](NC(=O)[C@H](CCCNC(=N)N)NC(=O)[C@H](Cc1c[nH]c2ccccc12)NC(=O)[C@H](CCCNC(=N)N)NC(=O)[C@H](Cc1c[nH]c2ccccc12)NC(=O)[C@H](Cc1c[nH]c2ccccc12)NC(=O)[C@H](Cc1c[nH]c2ccccc12)NC(=O)[C@H](CCCNC(=N)N)NC(=O)[C@H](Cc1c[nH]c2ccccc12)NC(=O)[C@H](CCCNC(=N)N)NC(=O)CN)C(N)=O
MIC (Candida albicans; broth microdilution; SP3931, RPMI 1640-MOPS; 48 h, 30 °C): 8 µM

CC(C)(C)OCC1NC(=O)C(C(=O)NC(C(=O)NC2C(=O)N3C2SC(C)(C)C3C(=O)O)c2ccccc2)=C1O (centres unmarked)
MIC (Escherichia coli; broth microdilution; Keio mutant JW2142-1): 50 µg/mL

O=C(O)CO/N=c1\cc2n(-c3ccc(Cl)cc3)c3ccccc3nc-2cc1Nc1ccc(Cl)cc1
MIC (Neisseria gonorrhoeae; bacterial growth; 700825, streptomycin-resistant; 24 h): 3.75 µM

CC[C@H](C)[C@H](NC(=O)[C@H](CC(C)C)NC(=O)[C@H](CC(C)C)NC(=O)[C@H](Cc1c[nH]cn1)NC(=O)[C@H](CCCCN)NC(=O)[C@H](Cc1c[nH]cn1)NC(=O)[C@H](CCCNC(=N)N)NC(=O)[C@@H]1CCCN1C(=O)[C@H](Cc1ccc(O)cc1)NC(=O)[C@H](CC(C)C)NC(=O)[C@H](CCC(N)=O)NC(=O)[C@@H](N)CO)C(=O)N[C@@H](CCCCN)C(=O)N[C@@H](CCCNC(=N)N)C(=O)N[C@@H](CO)C(=O)N[C@@H](CC(C)C)C(=O)N[C@@H](CCCNC(=N)N)C(=O)N[C@@H](CS)C(=O)N[C@@H](CCCNC(=N)N)C(=O)N[C@@H](CCCCN)C(=O)N[C@@H](CS)C(=O)O
MIC (Micrococcus luteus; NCTC 2665): 12.5 µg/mL

CC1(C)SC2C(NC(=O)C(NC(=O)C3=C(O)C(c4ccccc4)NC3=O)c3ccccc3)C(=O)N2C1C(=O)O (centres unmarked)
MIC (Escherichia coli; broth microdilution; JW0790-2 fiu deletion mutant; ferric iron uptake gene): 25 µg/mL

CC(C)C[C@@H](NC(=O)[C@H](C)NC(=O)CNC(=O)[C@@H](NC=O)C(C)C)C(=O)N[C@@H](C)C(=O)N[C@@H](C(=O)N[C@H](C(=O)N[C@@H](C(=O)N[C@@H](Cc1c[nH]c2ccccc12)C(=O)N[C@H](CC(C)C)C(=O)N[C@@H](Cc1cccc2cc[nH]c12)C(=O)N[C@H](CC(C)C)C(=O)N[C@@H](Cc1c[nH]c2ccccc12)C(=O)N[C@H](CC(C)C)C(=O)N[C@@H](Cc1c[nH]c2ccccc12)C(=O)NCCO)C(C)C)C(C)C)C(C)C
MIC (Streptococcus agalactiae; broth microdilution; JCM 5671): 17 µM

CC[C@H](C)[C@H](NC(=O)[C@H](CCCNC(=N)N)NC(=O)[C@H](Cc1c[nH]c2ccccc12)NC(=O)[C@H](CCCNC(=N)N)NC(=O)[C@H](Cc1c[nH]c2ccccc12)NC(=O)[C@H](Cc1c[nH]c2ccccc12)NC(=O)[C@H](Cc1c[nH]c2ccccc12)NC(=O)[C@H](CCCNC(=N)N)NC(=O)[C@H](Cc1c[nH]c2ccccc12)NC(=O)[C@@H](N)CCCNC(=N)N)C(N)=O
MIC (Candida albicans; broth microdilution; CGMCC 2.209, RPMI 1640-MOPS; 48 h, 30 °C, with: KCl 4.5 mM): 16 µM

CC1(C)SC2C(NC(=O)C(NC(=O)C3=C(O)C(Cc4ccc(O)cc4)NC3=O)c3ccccc3)C(=O)N2C1C(=O)O (centres unmarked)
MIC (Escherichia coli; broth microdilution; isolate IU 356 A, KPC-3, VIM-1, TEM; no clavulanic acid): > 200 µg/mL

C[C@@H](O)[C@H]1C(=O)N2C(C(=O)O)=C(SCCN=CN)C[C@H]12
MIC (Klebsiella pneumoniae; K4, during ceftazidime-avibactam induction; highest MIC, avibactam 2731/4 mg/L): > 128 µg/mL

N=C(N)c1cccc(OCc2ccc(COc3cccc(C(=N)N)c3)cc2)c1
MIC (Escherichia coli; BW25113 mcr-1; compound alone): > 200 µg/mL

CC(C)(C)Oc1ccc(CC2NC(=O)C(C(=O)NC(C(=O)NC3C(=O)N4C3SC(C)(C)C4C(=O)O)c3ccccc3)=C2O)cc1 (centres unmarked)
MIC (Escherichia coli; broth microdilution; Keio mutant JW5086-3; 18 h, ferrienterobactin permease gene): 25 µg/mL

CCOC(=O)CNC(=O)CO/N=c1\cc2n(-c3ccc(Cl)cc3)c3ccccc3nc-2cc1Nc1ccc(Cl)cc1
MIC (Neisseria gonorrhoeae; bacterial growth; 1130991, multidrug-resistant; 24 h): > 30 µM

OC(Cn1cncn1)(Cn1cncn1)c1ccc(F)cc1F
MIC (Candida tropicalis; broth microdilution; CGMCC 2.192, RPMI 1640-MOPS; 48 h, 30 °C): 4 µM

CC1(C)SC2C(NC(=O)C(NC(=O)C3=C(O)C(Cc4ccco4)NC3=O)c3ccccc3)C(=O)N2C1C(=O)O (centres unmarked)
MIC (Escherichia coli; broth microdilution; Keio mutant JW0587-1; 18 h, enterobactin-related gene): 12.5 µg/mL

CC(C)C[C@H](NC(=O)[C@H](C)NC(=O)[C@@H](NC(=O)[C@H](CCCNC(=N)N)NC(=O)[C@H](CC(C)C)NC(=O)[C@H](Cc1c[nH]c2ccccc12)NC(=O)[C@@H]1CCCN1C(=O)[C@@H](N)CCCCN)C(C)C)C(=O)N[C@@H](CS)C(=O)N1CCC[C@H]1C(=O)NCC(=O)O
MIC (Staphylococcus chromogenes; broth microdilution; G0791A): 64 µM

CC(C)[C@H](NC(=O)[C@H](CCCNC(=N)N)NC(=O)[C@H](Cc1c[nH]c2ccccc12)NC(=O)[C@H](CCCNC(=N)N)NC(=O)[C@H](Cc1c[nH]c2ccccc12)NC(=O)[C@H](Cc1c[nH]c2ccccc12)NC(=O)[C@H](Cc1c[nH]c2ccccc12)NC(=O)[C@H](CCCNC(=N)N)NC(=O)[C@H](Cc1c[nH]c2ccccc12)NC(=O)[C@@H](N)CCCNC(=N)N)C(N)=O
MIC (Candida albicans; broth microdilution; 17546, RPMI 1640-MOPS; 48 h, 30 °C): 8 µM

CC(C)CC1NC(=O)C(C(=O)NC(C(=O)NC2C(=O)N3C2SC(C)(C)C3C(=O)O)c2ccccc2)=C1O (centres unmarked)
MIC (Escherichia coli; broth microdilution; Keio mutant JW2142-1): 50 µg/mL

O=C(CO/N=c1\cc2n(-c3ccc(Cl)cc3)c3ccccc3nc-2cc1Nc1ccc(Cl)cc1)NCc1ccc2c(c1)CCO2
MIC (Neisseria gonorrhoeae; bacterial growth; 700825, streptomycin-resistant; 24 h): > 30 µM

CC(C)C[C@H](NC(=O)[C@H](CCCNC(=N)N)NC(=O)[C@H](Cc1c[nH]c2ccccc12)NC(=O)[C@H](CCCNC(=N)N)NC(=O)[C@H](Cc1c[nH]c2ccccc12)NC(=O)[C@H](Cc1c[nH]c2ccccc12)NC(=O)[C@H](Cc1c[nH]c2ccccc12)NC(=O)[C@H](CCCNC(=N)N)NC(=O)[C@H](Cc1c[nH]c2ccccc12)NC(=O)[C@@H](N)CCCNC(=N)N)C(N)=O
MIC (Candida albicans; broth microdilution; CGMCC 2.209, RPMI 1640-MOPS; 48 h, 30 °C): 8 µM

CC[C@H](C)[C@H](NC(=O)[C@H](CCCCN)NC(=O)[C@@H](NC(=O)[C@H](Cc1ccc(O)cc1)NC(=O)[C@H](CCCCN)NC(=O)[C@H](CCCCN)NC(=O)CNC(=O)[C@H](CCCCN)NC(=O)[C@@H](NC(=O)[C@H](C)NC(=O)[C@H](CC(C)C)NC(=O)[C@H](Cc1c[nH]c2ccccc12)NC(=O)CNC(=O)[C@@H](NC(=O)[C@H](Cc1ccccc1)NC(=O)[C@H](CCCCN)NC(=O)[C@H](CC(C)C)NC(=O)[C@H](Cc1ccccc1)NC(=O)[C@H](C)NC(=O)CNC(=O)[C@@H](N)CCSC)C(C)C)[C@@H](C)O)C(C)C)C(=O)N[C@@H](C)C(=O)N[C@@H](Cc1c[nH]c2ccccc12)C(=O)N[C@@H](CC(=O)O)C(=O)N[C@@H](Cc1c[nH]cn1)C(=O)N[C@@H](CCCCN)C(=O)NCC(=O)N[C@H](C(=O)N[C@H](C(=O)N[C@@H](CCSC)C(=O)N[C@@H](CCCCN)C(=O)N[C@@H](Cc1c[nH]c2ccccc12)C(=O)N[C@@H](CC(C)C)C(=O)N[C@@H](CC(N)=O)C(=O)N[C@@H](C)C(=O)NCC(=O)N[C@@H](CCC(N)=O)C(=O)N[C@H](C(=O)N[C@@H](Cc1ccccc1)C(=O)N[C@H](C(=O)N[C@@H](Cc1c[nH]c2ccccc12)C(=O)N[C@H](C(=O)N[C@@H](Cc1ccc(O)cc1)C(=O)N[C@@H](CCC(=O)O)C(=O)N[C@@H](CCC(N)=O)C(=O)N[C@H](C(=O)N[C@@H](CCCCN)C(=O)N[C@@H](CCCCN)C(=O)N[C@@H](CC(C)C)C(=O)N[C@@H](Cc1c[nH]c2ccccc12)C(=O)N[C@H](C(=O)O)[C@@H](C)O)[C@@H](C)CC)C(C)C)[C@@H](C)O)[C@@H](C)O)[C@@H](C)CC)[C@@H](C)O
MIC (Streptococcus iniae; ATCC 29178; 37 °C, non-formylated synthetic): 7.8 µg/mL

N=C(N)NCCC[C@H](NC(=O)[C@H](Cc1c[nH]c2ccccc12)NC(=O)[C@H](CCCNC(=N)N)NC(=O)[C@H](Cc1c[nH]c2ccccc12)NC(=O)[C@H](Cc1c[nH]c2ccccc12)NC(=O)[C@H](Cc1c[nH]c2ccccc12)NC(=O)[C@H](CCCNC(=N)N)NC(=O)[C@H](Cc1c[nH]c2ccccc12)NC(=O)[C@@H](N)CCCNC(=N)N)C(=O)N[C@@H](Cc1c[nH]c2ccccc12)C(N)=O
MIC (Candida albicans; broth microdilution; CGMCC 2.209, RPMI 1640-MOPS; 48 h, 30 °C, with: FeCl3 4 µM): 16 µM

Cc1c2ccncc2c(C)c2c1[nH]c1ccccc12
MIC (Candidozyma auris; inhibitor; 280; 24 h): 128 µg/mL

N=C(N)NCCC[C@H](NC(=O)[C@H](Cc1c[nH]c2ccccc12)NC(=O)[C@H](CCCNC(=N)N)NC(=O)[C@H](Cc1c[nH]c2ccccc12)NC(=O)[C@H](Cc1c[nH]c2ccccc12)NC(=O)[C@H](Cc1c[nH]c2ccccc12)NC(=O)[C@H](CCCNC(=N)N)NC(=O)[C@H](Cc1c[nH]c2ccccc12)NC(=O)[C@H](CCCNC(=N)N)NC(=O)CN)C(N)=O
MIC (Candida tropicalis; broth microdilution; CGMCC 2.192, RPMI 1640-MOPS; 48 h, 30 °C): 2 µM

CC1NC(=O)C(C(=O)NC(C(=O)NC2C(=O)N3C2SC(C)(C)C3C(=O)O)c2ccccc2)=C1O (centres unmarked)
MIC (Escherichia coli; broth microdilution; isolate IU, CTX-M-14, TEM-1; with: clavulanic acid 6 µg/mL): > 200 µg/mL

C[C@H](NC(=O)[C@H](CCCNC(=N)N)NC(=O)[C@H](Cc1c[nH]c2ccccc12)NC(=O)[C@H](CCCNC(=N)N)NC(=O)[C@H](Cc1c[nH]c2ccccc12)NC(=O)[C@H](Cc1c[nH]c2ccccc12)NC(=O)[C@H](Cc1c[nH]c2ccccc12)NC(=O)[C@H](CCCNC(=N)N)NC(=O)[C@H](Cc1c[nH]c2ccccc12)NC(=O)[C@@H](N)CCCNC(=N)N)C(N)=O
MIC (Candida albicans; broth microdilution; alveolar fluid isolate, RPMI 1640-MOPS; 48 h, 30 °C): 8 µM

Clc1ccc(Nc2cc3nc4ccccc4n(-c4ccc(Cl)cc4)c-3c/c2=N\OCc2ccccc2)cc1
MIC (Neisseria gonorrhoeae; bacterial growth; 700825, streptomycin-resistant; 24 h): > 30 µM

A few entries again:
CC[C@H](C)[C@H](NC(=O)[C@H](CCCNC(=N)N)NC(=O)[C@H](Cc1c[nH]c2ccccc12)NC(=O)[C@H](CCCNC(=N)N)NC(=O)[C@H](Cc1c[nH]c2ccccc12)NC(=O)[C@H](Cc1c[nH]c2ccccc12)NC(=O)[C@H](Cc1c[nH]c2ccccc12)NC(=O)[C@H](CCCNC(=N)N)NC(=O)[C@H](Cc1c[nH]c2ccccc12)NC(=O)[C@H](CCCNC(=N)N)NC(=O)CN)C(N)=O
MIC (Candida albicans; broth microdilution; SP3931, RPMI 1640-MOPS; 48 h, 30 °C): 8 µM

CC(C)(C)OCC1NC(=O)C(C(=O)NC(C(=O)NC2C(=O)N3C2SC(C)(C)C3C(=O)O)c2ccccc2)=C1O (centres unmarked)
MIC (Escherichia coli; broth microdilution; Keio mutant JW2142-1): 50 µg/mL

O=C(O)CO/N=c1\cc2n(-c3ccc(Cl)cc3)c3ccccc3nc-2cc1Nc1ccc(Cl)cc1
MIC (Neisseria gonorrhoeae; bacterial growth; 700825, streptomycin-resistant; 24 h): 3.75 µM

CC[C@H](C)[C@H](NC(=O)[C@H](CC(C)C)NC(=O)[C@H](CC(C)C)NC(=O)[C@H](Cc1c[nH]cn1)NC(=O)[C@H](CCCCN)NC(=O)[C@H](Cc1c[nH]cn1)NC(=O)[C@H](CCCNC(=N)N)NC(=O)[C@@H]1CCCN1C(=O)[C@H](Cc1ccc(O)cc1)NC(=O)[C@H](CC(C)C)NC(=O)[C@H](CCC(N)=O)NC(=O)[C@@H](N)CO)C(=O)N[C@@H](CCCCN)C(=O)N[C@@H](CCCNC(=N)N)C(=O)N[C@@H](CO)C(=O)N[C@@H](CC(C)C)C(=O)N[C@@H](CCCNC(=N)N)C(=O)N[C@@H](CS)C(=O)N[C@@H](CCCNC(=N)N)C(=O)N[C@@H](CCCCN)C(=O)N[C@@H](CS)C(=O)O
MIC (Micrococcus luteus; NCTC 2665): 12.5 µg/mL
